Values quoted from earlier work, collected from citations in different studies.
Each line is one published result; not all experiments were run side by side. Converted amounts (≈) assume the structure as drawn.

The ΔTm of `Cc1c(CC(=O)N[C@@H](Cc2ccccc2)C(=O)N(C)c2ccccc2)c2ccccc2n1C(C)C` is reported as 7.8 °C (HIV-1 capsid hexamer wild type).
`O=C(c1cccc(Cn2[se]c3ccccc3c2=O)c1)N1CCOCC1` gave an IC50 of 350 nM (SARS-CoV-2 main protease; enzyme activity, inhibitor).
For `CC[C@H](C)[C@H](NC(=O)CNC(=O)[C@H](CS)NC(=O)CNC(=O)[C@H](CO)NC(=O)[C@@H](NC(=O)[C@@H](NC(=O)[C@@H](NC(=O)[C@H](CC(N)=O)NC(=O)[C@@H](NC(=O)[C@H](CO)NC(=O)[C@H](CS)NC(=O)[C@H](C)NC(=O)[C@H](Cc1ccccc1)NC(=O)[C@H](CCCNC(=N)N)NC(=O)[C@H](CS)NC(=O)[C@H](CCCCN)NC(=O)[C@@H](NC(=O)CNC(=O)[C@@H](N)CO)[C@@H](C)CC)[C@@H](C)CC)[C@@H](C)O)[C@@H](C)O)[C@@H](C)CC)C(=O)N[C@@H](CO)C(=O)N[C@@H](CS)C(=O)N[C@@H](CCCCN)C(=O)N[C@@H](Cc1ccccc1)C(=O)O`, the MIC was 16 µM (≈ 40 µg/mL) (Escherichia coli).
`CN(C(=O)[C@H](Cc1ccccc1)NC(=O)Cc1c[nH]c2ccc(O)cc12)c1ccccc1` has a ΔTm of 6.8 °C (HIV-1 capsid hexamer wild type).
For `COC1C2(O)C(=O)N3C=CC(C)(C)c4[nH]c5ccccc5c4C=C3C(=O)N2C23C(C)C(C)(C)N2c2ccccc2C13O` (centres unmarked), activity read “inactive” (glycine receptor α1β, human; 10 µM).
`S=c1oc(-c2ccccc2)nn1CN1CCN(Cc2ccccc2)CC1` has an inhibition of 27.3% (amyloid beta; aggregation, inhibitor; 10 µM).
With `O=c1c(O)c(-c2ccc(O)c(O)c2)oc2c([Se]c3ccccc3)c(O)cc(O)c12` the IC50 was 5100 nM (SARS-CoV-2 main protease; enzyme activity, inhibitor).
The MIC of `CC[C@H](C)[C@H](NC(=O)CNC(=O)[C@H](CC(=O)O)NC(=O)[C@H](CCCNC(=N)N)NC(=O)[C@@H](NC(=O)[C@H](CC(N)=O)NC(=O)[C@H](CCCNC(=N)N)NC(=O)CNC(=O)[C@@H](NC(=O)[C@H](CCCCN)NC(=O)[C@H](CCC(=O)O)NC(=O)[C@H](CC(C)C)NC(=O)[C@H](CCCCN)NC(=O)[C@H](CCCCN)NC(=O)[C@H](Cc1c[nH]c2ccccc12)NC(=O)[C@H](CO)NC(=O)[C@@H]1CCCN1)C(C)C)[C@@H](C)CC)C(=O)N[C@H](C(=O)N[C@@H](CCCCN)C(=O)N[C@@H](C)C(=O)NCC(=O)N1CCC[C@H]1C(=O)N[C@H](C(=O)N[C@H](C(=O)N[C@@H](CCC(=O)O)C(=O)N[C@H](C(=O)N[C@@H](CC(C)C)C(=O)NCC(=O)O)C(C)C)C(C)C)C(C)C)[C@@H](C)CC` is reported as 8 µM (≈ 24.5 µg/mL) (Pseudomonas aeruginosa).
`O=c1c2ccccc2[se]n1Cc1ccc(Cl)cc1` has an IC50 of 820 nM (SARS-CoV-2 main protease; enzyme activity, inhibitor).
The ΔTm of `Cc1ccc(N(C)C(=O)[C@H](Cc2ccccc2)NC(=O)Cc2c[nH]c3ccc(O)cc23)cc1` is reported as 6.3 °C (HIV-1 capsid hexamer wild type).
`COCc1cc(O)c(=O)c(O)c(C(=O)OC)c1C(=O)OC` gave an IC50 of 1000 nM (HIV RNase H; enzyme activity).
The ΔTm of `CCn1c(C)c(CC(=O)N[C@@H](Cc2ccccc2)C(=O)N(C)c2ccccc2)c2ccccc21` is reported as 10.8 °C (HIV-1 capsid hexamer wild type).
For `COC(=O)c1c(C)cc(O)c(=O)c(O)c1C(=O)OC`, the IC50 was 230 nM (HIV RNase H; enzyme activity).
`CCCC(=O)SCC[N+](C)(C)C`: “substrate activation factor b” 1.7 (butyrylcholinesterase; concentration not given).

Excerpt of the above:
`CCCC(=O)SCC[N+](C)(C)C`: “substrate activation factor b” 1.7 (butyrylcholinesterase; concentration not given).
For `COC1C2(O)C(=O)N3C=CC(C)(C)c4[nH]c5ccccc5c4C=C3C(=O)N2C23C(C)C(C)(C)N2c2ccccc2C13O` (centres unmarked), activity read “inactive” (glycine receptor α1β, human; 10 µM).
